Published values from different studies.
Compare with care: the assays were run in different laboratories. ± gives the spread as reported. ≈ marks a conversion by molar mass, not a printed value.
MCA2: Metacaspase-2 (MCA2, Trypanosoma brucei brucei, UniProt Q585F3)
PTPN1: Tyrosine-protein phosphatase non-receptor type 1 (PTPN1, Homo sapiens, UniProt P18031)
FURIN: Furin (FURIN, Homo sapiens, UniProt P09958)

The chains behind the UniProt entries cited, without tags or fusion partners. Residues count along the entry.
UniProt Q585F3, whole entry, looked up: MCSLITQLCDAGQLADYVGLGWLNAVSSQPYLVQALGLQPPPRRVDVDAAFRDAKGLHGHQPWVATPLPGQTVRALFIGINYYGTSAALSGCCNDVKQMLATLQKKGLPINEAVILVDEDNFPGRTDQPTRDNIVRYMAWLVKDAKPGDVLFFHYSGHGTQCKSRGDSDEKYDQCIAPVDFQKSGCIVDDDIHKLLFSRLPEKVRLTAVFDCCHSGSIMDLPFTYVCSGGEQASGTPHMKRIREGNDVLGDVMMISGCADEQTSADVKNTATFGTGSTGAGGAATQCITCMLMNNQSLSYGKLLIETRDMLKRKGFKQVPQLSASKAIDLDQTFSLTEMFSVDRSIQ
UniProt P18031, 1-321 limits assumed: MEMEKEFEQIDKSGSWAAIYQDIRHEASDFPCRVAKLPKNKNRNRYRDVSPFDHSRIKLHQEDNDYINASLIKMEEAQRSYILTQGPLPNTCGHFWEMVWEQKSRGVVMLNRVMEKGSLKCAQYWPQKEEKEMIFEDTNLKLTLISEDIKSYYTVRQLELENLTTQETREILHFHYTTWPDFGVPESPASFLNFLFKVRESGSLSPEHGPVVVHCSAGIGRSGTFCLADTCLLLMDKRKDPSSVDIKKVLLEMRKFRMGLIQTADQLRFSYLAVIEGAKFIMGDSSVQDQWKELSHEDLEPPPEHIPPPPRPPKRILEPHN
UniProt P09958, whole entry, looked up: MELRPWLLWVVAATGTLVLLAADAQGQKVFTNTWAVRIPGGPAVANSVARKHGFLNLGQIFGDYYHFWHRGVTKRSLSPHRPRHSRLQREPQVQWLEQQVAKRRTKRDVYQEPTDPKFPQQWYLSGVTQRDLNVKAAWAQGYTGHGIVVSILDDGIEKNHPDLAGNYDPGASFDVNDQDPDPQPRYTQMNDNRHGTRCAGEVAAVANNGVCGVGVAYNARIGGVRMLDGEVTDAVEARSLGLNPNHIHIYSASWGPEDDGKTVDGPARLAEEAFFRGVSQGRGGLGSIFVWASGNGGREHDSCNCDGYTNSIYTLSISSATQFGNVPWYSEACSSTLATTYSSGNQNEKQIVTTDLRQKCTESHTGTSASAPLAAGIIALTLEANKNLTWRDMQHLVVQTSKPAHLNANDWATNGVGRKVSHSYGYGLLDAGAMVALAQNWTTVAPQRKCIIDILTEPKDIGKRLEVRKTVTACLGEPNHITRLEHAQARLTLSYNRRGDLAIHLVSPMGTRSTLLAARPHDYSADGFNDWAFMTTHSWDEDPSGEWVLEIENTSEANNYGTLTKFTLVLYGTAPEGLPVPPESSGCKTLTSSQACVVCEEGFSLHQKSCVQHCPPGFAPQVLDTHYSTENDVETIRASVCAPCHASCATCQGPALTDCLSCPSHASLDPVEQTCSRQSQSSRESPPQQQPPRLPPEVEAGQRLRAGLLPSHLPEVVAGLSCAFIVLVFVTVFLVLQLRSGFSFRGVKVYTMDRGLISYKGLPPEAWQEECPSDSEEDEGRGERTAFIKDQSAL
UniProt P54292, whole entry: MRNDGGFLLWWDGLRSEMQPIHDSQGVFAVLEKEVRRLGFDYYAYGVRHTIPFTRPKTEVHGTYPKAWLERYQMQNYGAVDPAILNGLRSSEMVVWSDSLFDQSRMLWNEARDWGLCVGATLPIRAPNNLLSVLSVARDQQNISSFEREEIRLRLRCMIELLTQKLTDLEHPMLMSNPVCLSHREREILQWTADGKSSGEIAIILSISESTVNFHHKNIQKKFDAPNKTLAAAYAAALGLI
UniProt P04757, 26-499 limits assumed: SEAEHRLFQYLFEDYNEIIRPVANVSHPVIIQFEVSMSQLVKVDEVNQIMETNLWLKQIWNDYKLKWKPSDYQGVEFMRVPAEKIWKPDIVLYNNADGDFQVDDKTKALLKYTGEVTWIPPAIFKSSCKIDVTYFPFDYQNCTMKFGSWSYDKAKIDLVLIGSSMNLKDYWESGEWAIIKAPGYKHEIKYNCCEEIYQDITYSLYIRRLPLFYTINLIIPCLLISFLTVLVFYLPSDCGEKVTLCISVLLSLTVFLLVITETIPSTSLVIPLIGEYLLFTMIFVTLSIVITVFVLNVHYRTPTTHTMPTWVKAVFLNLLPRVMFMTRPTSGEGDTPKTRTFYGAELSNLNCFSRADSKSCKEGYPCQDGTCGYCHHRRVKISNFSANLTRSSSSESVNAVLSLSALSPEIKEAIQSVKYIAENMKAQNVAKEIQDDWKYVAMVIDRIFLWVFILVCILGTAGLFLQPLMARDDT
UniProt P12390, 25-500 limits assumed: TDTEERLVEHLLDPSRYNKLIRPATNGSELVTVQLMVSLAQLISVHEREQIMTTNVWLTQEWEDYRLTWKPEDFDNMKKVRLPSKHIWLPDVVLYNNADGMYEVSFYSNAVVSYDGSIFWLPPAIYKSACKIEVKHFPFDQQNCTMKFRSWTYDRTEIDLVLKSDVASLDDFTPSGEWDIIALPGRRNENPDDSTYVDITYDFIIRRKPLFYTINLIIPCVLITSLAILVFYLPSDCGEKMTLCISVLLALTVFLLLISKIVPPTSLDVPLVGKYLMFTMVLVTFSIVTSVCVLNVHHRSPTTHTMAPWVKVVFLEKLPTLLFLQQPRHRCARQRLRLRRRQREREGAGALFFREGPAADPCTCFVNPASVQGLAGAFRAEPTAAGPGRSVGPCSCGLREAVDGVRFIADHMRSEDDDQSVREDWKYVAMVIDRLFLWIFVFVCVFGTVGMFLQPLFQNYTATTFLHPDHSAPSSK
UniProt Q99816, whole entry, looked up: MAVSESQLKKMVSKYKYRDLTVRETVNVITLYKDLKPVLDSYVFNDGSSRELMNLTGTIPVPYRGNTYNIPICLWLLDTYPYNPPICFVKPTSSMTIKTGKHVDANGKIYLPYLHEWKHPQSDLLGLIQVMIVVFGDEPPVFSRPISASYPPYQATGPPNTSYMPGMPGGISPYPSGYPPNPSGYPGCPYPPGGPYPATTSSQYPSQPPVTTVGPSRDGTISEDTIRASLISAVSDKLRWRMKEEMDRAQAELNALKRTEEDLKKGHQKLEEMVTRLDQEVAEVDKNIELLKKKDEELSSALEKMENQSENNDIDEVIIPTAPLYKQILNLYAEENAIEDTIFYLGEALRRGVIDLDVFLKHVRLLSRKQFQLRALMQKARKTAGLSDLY

CC[C@H](C)[C@H](NC(=O)[C@H](CCCCN)NC(=O)c1ccccc1N)C(=O)N[C@@H](CCCNC(=N)N)C(=O)N[C@@H](CO)C(=O)N[C@@H](CO)C(=O)N[C@@H](C)C(=O)N[C@@H](CCC(N)=O)C(=O)NCCNc1ccc([N+](=O)[O-])cc1[N+](=O)[O-] gave a Km of 0.56 µM (MCA2; enzyme activity, substrate, FRET hydrolysis; Trypanosoma brucei; pH 7.4).
For CC[C@H](C)[C@H](NC(=O)[C@@H](N)CCC(=O)O)C(=O)N1CCC[C@H]1C(=O)N[C@@H](CC(=O)O)C(=O)N[C@H](C(=O)N[C@@H](CC(C)C)C(=O)N[C@@H](CC(N)=O)C(=O)N[C@@H](CO)C(=O)N[C@@H](CC(C)C)C(=O)O)C(C)C, the z-score was -3.49 (HLA class I histocompatibility antigen, A alpha chain, allele A*25:01 (Homo sapiens, UniProt P04439); direction not given).
CC(=O)N[C@@H](C)C(=O)N[C@@H](C)C(=O)N[C@@H](Cc1ccc(OP(=O)(O)O)cc1)C(=O)N[C@@H](CC(=O)O)C(=O)N[C@@H](CC(C)C)C(=O)N[C@@H](CC(=O)O)C(=O)N[C@@H](CCC(=O)O)C(=O)N[C@@H](Cc1ccc(O)cc1)C(N)=O gave a kcat of 34 ± 1 s⁻¹ (PTPN1; substrate; pH 7.4, catalytic domain).
CC(C)C[C@H](NC(=O)[C@H](CS)NC(=O)[C@H](Cc1ccc(O)cc1)NC(=O)[C@H](Cc1ccccc1)NC(=O)[C@@H](NC(=O)[C@@H]1CCCN1C(=O)[C@H](Cc1ccc(O)cc1)NC(=O)[C@@H](N)CC(C)C)[C@@H](C)O)C(=O)N[C@@H](Cc1ccccc1)C(=O)O has a z-score of -0.525 (HLA class I histocompatibility antigen, C alpha chain, allele C*04:01 (Homo sapiens, UniProt P10321); direction not given).
The kcat/Km of CC[C@H](C)[C@H](NC(=O)[C@@H](NC(=O)[C@H](Cc1ccccc1)NC(=O)[C@H](CCC(=O)O)NC(=O)CNC(=O)[C@H](Cc1ccc(OP(=O)(O)O)cc1)NC(=O)[C@@H](NC(=O)[C@H](CC(=O)O)NC(=O)[C@H](C)NC(=O)[C@@H](NC(=O)[C@H](CC(=O)O)NC(C)=O)[C@@H](C)O)C(C)C)[C@@H](C)O)C(N)=O is reported as 4.8e+06 M⁻¹ s⁻¹ (PTPN1; substrate, continuous UV; pH 7.4).
With CC(C)C[C@H](NC(=O)[C@H](C)NC(=O)[C@H](CCCNC(=N)N)NC(=O)[C@H](CCCCN)NC(=O)[C@H](CCCCN)NC(=O)[C@H](CCCNC(=N)N)NC(=O)[C@H](CCC(N)=O)NC(=O)CNC(=O)c1ccccc1N)C(=O)N[C@@H](CC(=O)O)C(=O)N[C@H](C(=O)N[C@@H](CCC(N)=O)C(=O)NCCNc1ccc([N+](=O)[O-])cc1[N+](=O)[O-])[C@@H](C)O the kcat was 3.4 s⁻¹ (FURIN; substrate; pH 7).
The Emax of O=C(N[C@H]1CCOC1=O)C1CCCC1 is reported as 110% (rhlR (Pseudomonas aeruginosa, UniProt P54292); reporter gene, agonist, rhlI-gfp reporter; PAO-JP2).
With CCOc1ccc(C2C(C#N)=C(N)Oc3c2c(C)nn3-c2ccc(Cl)cc2)cc1 (stereo not shown) the viability was 67.7% (Vero E6; 1.6 µM).
With N=C(N)NCCC[C@H](NC(=O)c1ccccc1N)C(=O)N[C@@H](Cc1c[nH]cn1)C(=O)N[C@@H](CCCNC(=N)N)C(=O)N[C@@H](CCC(N)=O)C(=O)N1CCC[C@H]1C(=O)N[C@@H](CCCNC(=N)N)C(=O)NCC(=O)N[C@@H](Cc1c[nH]c2ccccc12)C(=O)N[C@@H](CCC(=O)O)C(=O)N[C@@H](CCC(N)=O)C(=O)N[C@@H](CCC(N)=O)C(=O)NCCNc1ccc([N+](=O)[O-])cc1[N+](=O)[O-] the Km was 11.8 µM (FURIN; substrate; pH 7).
CSCC[C@H](NC(=O)[C@@H]1CCCN1C(=O)[C@@H]1CCCN1C(=O)[C@H](CCCNC(=N)N)NC(=O)[C@@H]1CCCN1C(=O)[C@H](CCCNC(=N)N)NC(=O)[C@H](C)NC(=O)[C@@H](NC(=O)[C@@H](N)[C@@H](C)O)[C@@H](C)O)C(=O)O has a z-score of -0.799 (HLA class I histocompatibility antigen, A alpha chain, allele A*26:03 (Homo sapiens, UniProt P04439); direction not given).
C[C@H](NC(=O)[C@H](CCCCN)NC(=O)c1ccccc1N)C(=O)N[C@@H](CCCNC(=N)N)C(=O)N[C@@H](C)C(=O)N[C@@H](CO)C(=O)N[C@@H](C)C(=O)N[C@@H](CCC(N)=O)C(=O)NCCNc1ccc([N+](=O)[O-])cc1[N+](=O)[O-] gave a Km of 0.87 µM (MCA2; enzyme activity, substrate, FRET hydrolysis; Trypanosoma brucei; pH 7.4).
The z-score of CC(C)[C@H](NC(=O)[C@@H]1CCCN1C(=O)[C@@H]1CCCN1C(=O)[C@H](Cc1ccccc1)NC(=O)[C@@H](NC(=O)[C@@H](NC(=O)[C@H](C)NC(=O)[C@H](C)NC(=O)[C@@H](N)CC(=O)O)C(C)C)C(C)C)C(=O)O is reported as -4.33 (HLA class I histocompatibility antigen, A alpha chain, allele A*69:01 (Homo sapiens, UniProt P04439); direction not given).
The kcat/Km of CC(=O)N[C@@H](C)C(=O)N[C@@H](CO)C(=O)N[C@@H](CO)C(=O)N[C@@H](CC(=O)O)C(=O)N[C@@H](CC(=O)O)C(=O)N[C@@H](Cc1ccc(OP(=O)(O)O)cc1)C(=O)N[C@@H](C)C(=O)N[C@@H](C)C(N)=O is reported as 1.8e+06 M⁻¹ s⁻¹ (PTPN1; substrate, continuous UV; pH 7.4).
CC(C)C[C@H](NC(=O)[C@@H](NC(=O)[C@H](Cc1ccccc1)NC(=O)[C@H](CCCNC(=N)N)NC(=O)[C@H](CCCCN)NC(=O)[C@H](CCC(N)=O)NC(=O)[C@H](CCCNC(=N)N)NC(=O)[C@H](Cc1c[nH]cn1)NC(=O)[C@H](CCCNC(=N)N)NC(=O)c1ccccc1N)C(C)C)C(=O)N[C@@H](CO)C(=O)N[C@@H](CCC(N)=O)C(=O)NCCNc1ccc([N+](=O)[O-])cc1[N+](=O)[O-] has a kcat of 1.3 s⁻¹ (FURIN; substrate; pH 7).
With CC[C@H](C)[C@@H]1NC(=O)[C@H](CCC(=O)O)NC(=O)[C@@H]2CCCN2C(=O)[C@H](Cc2c[nH]cn2)NC(=O)[C@H](CCCNC(=N)N)NC(=O)[C@H](C(C)C)NC(=O)[C@H](CC(N)=O)NC(=O)[C@@H]2CSSC[C@H](NC(=O)CN)C(=O)N[C@@H](CSSC[C@@H](C(N)=O)NC1=O)C(=O)N[C@@H](CO)C(=O)N[C@@H](Cc1c[nH]cn1)C(=O)N1CCC[C@H]1C(=O)N[C@@H](C(C)C)C(=O)N2 the IC50 was greater than 10 µM (Neuronal acetylcholine receptor; alpha3/beta2 (Rattus norvegicus, UniProt P04757+P12390); ion current, antagonist, two-electrode voltage clamp; Xenopus oocytes; rat, with: ACh 100 µM).
For CCOC(=O)c1c(-c2ccc(Cl)cc2Cl)n(-c2nc(-c3ccc(Cl)cc3)c3c(NC(=O)c4ccccc4)nnc-3[nH]2)[nH]c1=O, the CC50 was greater than 100 µM (HL-60(TB)).
The kcat of CC(C)C[C@H](NC(=O)[C@@H](NC(=O)[C@H](Cc1ccccc1)NC(=O)[C@H](CCCNC(=N)N)NC(=O)[C@H](CCCCN)NC(=O)[C@H](CCC(N)=O)NC(=O)[C@H](CCCNC(=N)N)NC(=O)[C@H](CC(N)=O)NC(=O)[C@H](CCCNC(=N)N)NC(=O)c1ccccc1N)C(C)C)C(=O)N[C@@H](CO)C(=O)N[C@@H](CCC(N)=O)C(=O)NCCNc1ccc([N+](=O)[O-])cc1[N+](=O)[O-] is reported as 0.5 s⁻¹ (FURIN; substrate; pH 7).
For Cc1nn(-c2ccc(Cl)cc2)c2c1C(c1cc(Cl)ccc1Cl)C(C#N)=C(N)O2 (stereo not shown), the viability was 51.2% (Vero E6; MTT; 100 µM).
With CC(=O)N[C@@H](C)C(=O)N[C@@H](C)C(=O)N[C@@H](C)C(=O)N[C@@H](C)C(=O)N[C@@H](C)C(=O)N[C@@H](Cc1ccc(OP(=O)(O)O)cc1)C(=O)N[C@@H](CCCNC(=N)N)C(=O)N[C@@H](Cc1c[nH]cn1)C(=O)N[C@@H](CCCNC(=N)N)C(=O)N[C@@H](CCCNC(=N)N)C(N)=O the kcat/Km was 140000 M⁻¹ s⁻¹ (PTPN1; substrate, continuous UV; pH 7.4).
With CSCC[C@H](NC(=O)[C@@H]1CCCN1C(=O)[C@@H]1CCCN1C(=O)[C@H](CCSC)NC(=O)[C@@H]1CCCN1C(=O)[C@@H]1CCCN1C(=O)[C@H](C)NC(=O)[C@H](CO)NC(=O)[C@@H]1CCCN1C(=O)[C@@H](NC(=O)[C@H](CC(C)C)NC(=O)[C@H](CO)NC(=O)CNC(=O)CNC(=O)[C@@H](N)Cc1ccc(O)cc1)C(C)C)C(=O)O the Tm was 68.8 ± 0.2 °C (Tumor susceptibility gene 101 protein, UEV domain (Homo sapiens, UniProt Q99816); thermal stability; 800 µM, 8% DMSO).
With N#Cc1c(-c2ccc(Cl)cc2Cl)n(-c2nc(-c3ccc(Cl)cc3)c3c(NC(=O)c4ccccc4)nnc-3[nH]2)[nH]c1=O the CC50 was greater than 100 µM (RPMI-8226; SRB).
CC1(C)N=C(N)N=C(N)N1c1cccc(OCCCc2ccccc2)c1 gave an MIC90 of 5.8 µM (≈ 2.04 µg/mL) (Mycobacterium tuberculosis; microplate alamar blue; H37Rv; 7H12 medium).
